Results gathered from unrelated publications.
Each line is one published result; not all experiments were run side by side. Numbers after ± are the reported error. Values after ≈ are worked out from the molar mass of the structure shown.
Organism: Staphylococcus aureus

For `CCCCc1ccc(-c2nc(C)c(C(C)=NNC(=N)N)s2)cc1`, the MBC was 2.6 µg/mL (≈ 7.89 µM) (NRS37 VISA).
The growth inhibition of `CC(C)C[C@H](NC(=O)[C@H](C)NC(=O)[C@@H](N)C(C)C)C(=O)N[C@@H](CC(=O)O)C(=O)N[C@@H](CC(C)C)C(=O)N[C@@H](CC(C)C)C(=O)N[C@@H](CCC(N)=O)C(=O)N[C@@H](Cc1ccc(O)cc1)C(=O)O` is reported as 45.7% (OD600; ATCC 25923; concentration not given, 18 to 22 h, 37 °C, unheated).
The EC50 ratio of `C[C@@H](O)[C@H](N)C(=O)N[C@@H](CS)C(=O)N[C@@H](Cc1ccc(O)cc1)C(=O)N[C@@H](CS)C(=O)N[C@@H](CCCNC(=N)N)C(=O)N[C@H](C(=O)NCC(N)=O)[C@@H](C)O` is reported as 10 fold (virtual colony-count; MRSA ATCC 43300; reference: MRSA over susceptible S. aureus).
`CC(C)C1=CC2=CCC3C(C)(C(=O)OCCC[N+](C)(C)C)CCCC3(C)C2CC1` (stereo not drawn) has a selectivity index of 8.2 (MRSA ATCC BAA-44, mouse red blood cells; reference: HC50 over MIC).
With `C=Cc1cc(OC)c2c(c1)c(=O)oc1c2cc(OC)c2c(O)ccc([C@@H]3O[C@H](C)[C@H](O)[C@@](C)(O)[C@H]3O)c21` the biofilm reduction was 58% (crystal violet; USA300; 0.25 µg/mL, 0.5 x MIC).
Under “inhibition zone diameter”, `CN1CC(=O)N=C1N.C[C@H](CCC(=O)O)[C@H]1CC[C@H]2[C@@H]3CC[C@@H]4C[C@H](O)CC[C@]4(C)[C@H]3C[C@H](O)[C@]12C` is recorded as 11.5 ± 1.8 mm (TISTR 746; 1 mg per disc, 18 to 24 h, 37 °C, 6 mm disc).
The MIC90 of `Fc1ccc2nc3c4cccnc4c4ncccc4c3nc2c1.[Cl-].[Cl-].[Ru+2].c1ccncc1.c1ccncc1.c1ccncc1.c1ccncc1` is reported as 4 µM (MRSA ATCC 43300; LED irradiation 470 nm).
`CC[C@H](C)[C@H](NC(=O)[C@H](CCCN)NC(=O)[C@H](CC(N)=O)NC(=O)[C@H](Cc1c[nH]c2ccccc12)NC(=O)[C@H](Cc1ccccc1)NC(=O)[C@H](CCCN)NC(=O)[C@H](CCCCNC(=N)N)NC(=O)[C@H](CC(C)C)NC(=O)[C@H](Cc1c[nH]c2ccccc12)NC(=O)[C@H](CCCN)NC(=O)[C@H](CCCCNC(=N)N)NC(=O)[C@H](CC(C)C)NC(=O)CNC(C)=O)C(=O)N[C@@H](CCCN)C(=O)N[C@@H](CCCCNC(=N)N)C(N)=O` — result for “biofilm formation inhibition”: ≤ 42.9% (crystal violet staining; 4 × MIC, 24 h).
`CC[C@@](C)(NC)C(=O)NC(C)(C)C(=O)NC(C)(C)C(=O)NC(C)(C)C(=O)NCC(=O)NC(C)(C)C(=O)N1CCC[C@@H]1C(=O)N[C@@H](Cc1c[nH]c2ccccc12)C(=O)NC(C)(C)C(=O)N1C[C@H](O)C[C@@H]1C(=O)N[C@@H](C)C(=O)NC(C)(C)C(=O)NCCCC(=O)N[C@@H](CC(C)C)C(=O)N[C@](C)(CC)C(=O)NC(C)(C)C(=O)N[C@](C)(CC)C(=O)N[C@H](CO)Cc1ccccc1` — result for “extracellular ATP level”: “increased” (ATCC 29213; 1, 5, 10 µg/mL, 1 h, 37 °C).
`CC[C@H](C)[C@H](NC(=O)[C@H](CCCCN)NC(=O)[C@H](CCCCN)NC(=O)[C@H](Cc1c[nH]c2ccccc12)NC(=O)[C@H](CC(N)=O)NC(=O)[C@@H](NC(=O)COCCOCCOCCOCCOCCOCCOC(=O)NCCCCCCNC(=O)NCCCCCCNC(=O)Nc1nc(=O)cc(C)[nH]1)C(C)C)C(=O)N[C@@H](CC(C)C)C(=O)NCC(=O)N[C@@H](CCCCN)C(=O)N[C@H](C(=O)N[C@H](C(=O)N[C@@H](CCCCN)C(=O)N[C@H](C(=O)N[C@H](C(=O)N[C@@H](CCCCN)C(N)=O)C(C)C)C(C)C)[C@@H](C)CC)[C@@H](C)CC` has an LC99.9 of 7.5 µM (MSSA RN 4220, RPMI medium; 24 h, 37 °C).
With `CCOC(=O)c1sc(N/N=C/c2c(-c3ccc(C)cc3)nc3ncccn23)nc1C` the inhibition zone was 15 mm (microbial growth, well diffusion; ATCC23235; 100 µg/mL).
For `CC[C@H](C)[C@@H]1NC(=O)[C@H](CCC(N)=O)NC(=O)[C@H](CCC(=O)O)NC(=O)[C@H](CCC(=O)O)NC(=O)[C@H](CCCCN)NC(=O)[C@@H]2CCCN2C(=O)[C@H](CC(C)C)NC(=O)[C@@H](NC(=O)[C@@H](N)CO)CSSC[C@@H](C(=O)N[C@@H](CCCNC(=N)N)C(=O)N[C@@H](CCCNC(=N)N)C(=O)N[C@@H](CCCCN)C(=O)N[C@@H](CCCCN)C(=O)O)NC(=O)[C@H](CCCCN)NC(=O)[C@H](CCCNC(=N)N)NC(=O)CNC(=O)[C@H](CCCNC(=N)N)NC(=O)[C@H]([C@@H](C)O)NC(=O)[C@H](CO)NC(=O)[C@H](CCCCN)NC(=O)CNC1=O`, antibacterial activity read “inhibited” (ATCC 8530; MBC, 2 h, pH 7.4, 37 °C, with: Escherichia coli K-235 LPS, peptide:LPS 1:10 w/w).
The MIC ratio of `CC1=C[C@@H](C)[C@H]2[C@@H]3C(=O)C(Cl)(Cl)C(=O)[C@H](C)C(=O)O[C@@H](C)/C=C/C=C\[C@@H](C)[C@@H]3C=C[C@@H]2C1` is reported as ~10 fold (Newman resistant mutants; reference: mutant over wild type).
`CC(=O)N[C@@H](Cc1c[nH]cn1)C(=O)N[C@@H](Cc1ccccc1)C(=O)N[C@@H](CCCNC(=N)N)C(=O)N[C@@H](Cc1c[nH]c2ccccc12)C(=O)NCC(=O)N[C@@H](CCCCN)C(=O)N1CCC[C@H]1C(=O)N[C@H](C(N)=O)C(C)C` gave a survival of 30 ± 4% (calcein leakage flow cytometry; ATCC 33591; 30 µM, 2 h, 37 °C).
`CC[C@H](C)[C@H](NC(=O)[C@H](CCCCN)NC(=O)[C@H](CCCCN)NC(=O)[C@H](CC(C)C)NC(=O)[C@H](CCCCN)NC(=O)[C@H](CCC(=O)O)NC(=O)[C@H](CCCCN)NC(=O)[C@@H](NC(=O)[C@H](CCCCN)NC(=O)[C@H](CC(N)=O)NC(=O)[C@H](CCCNC(=N)N)NC(=O)[C@H](Cc1ccccc1)NC(=O)[C@H](CCCCN)NC(=O)[C@H](CCCNC(=N)N)NC(=O)[C@H](CC(C)C)NC(=O)[C@H](CCCNC(=N)N)NC(=O)[C@H](CCCCN)NC(=O)[C@H](CCCNC(=N)N)NC(=O)[C@H](CC(C)C)NC(=O)CN)[C@@H](C)CC)C(=O)NCC(=O)N[C@@H](CCC(N)=O)C(=O)N[C@@H](CCCCN)C(=O)N[C@H](C(=O)N[C@@H](CCC(N)=O)C(=O)NCC(=O)N[C@@H](Cc1ccccc1)C(=O)N[C@H](C(=O)N1CCC[C@H]1C(=O)N[C@@H](CCCCN)C(=O)N[C@@H](CC(C)C)C(=O)N[C@@H](C)C(=O)N1CCC[C@H]1C(=O)N[C@@H](CCCNC(=N)N)C(=O)N[C@H](C(=O)N[C@@H](CC(=O)O)C(=O)N[C@@H](Cc1ccc(O)cc1)C(=O)O)[C@@H](C)O)C(C)C)[C@@H](C)CC` gave a lethal concentration of 1.19 µM (inhibition zone; penicillin-resistant P1383).

Excerpt of the above:
With `C=Cc1cc(OC)c2c(c1)c(=O)oc1c2cc(OC)c2c(O)ccc([C@@H]3O[C@H](C)[C@H](O)[C@@](C)(O)[C@H]3O)c21` the biofilm reduction was 58% (crystal violet; USA300; 0.25 µg/mL, 0.5 x MIC).
Under “inhibition zone diameter”, `CN1CC(=O)N=C1N.C[C@H](CCC(=O)O)[C@H]1CC[C@H]2[C@@H]3CC[C@@H]4C[C@H](O)CC[C@]4(C)[C@H]3C[C@H](O)[C@]12C` is recorded as 11.5 ± 1.8 mm (TISTR 746; 1 mg per disc, 18 to 24 h, 37 °C, 6 mm disc).
